Measurements pooled from the literature.
Each line is one published result; not all experiments were run side by side.
Target: Serine/threonine-protein kinase WNK4 (WNK4, Homo sapiens, UniProt Q96J92)

CC(C)=CC1OC(C)(C)C2C=C3C(=O)C(Cl)=CC(O)C3C3C(O)C4OC4C(=O)C132 (stereo not shown) — remaining binding (cell-free assay, competition with immobilised ligand; 10 µM): 87%
COc1cc(Nc2nccc(-c3cnn4nc(OC)ccc34)n2)cc(C(F)(F)F)c1 — remaining binding (binding, competition with immobilised ligand; 1 µM): 100%
Nc1ncc2c(n1)-c1c([nH]c3ccc(C4=CCOCC4)cc13)CCC2 — remaining binding (binding, competition with immobilised ligand; 1 µM): 100%
C=CC(=O)N1CCCC(n2c(=O)c3ncccc3n(Cc3ccc(Oc4ccccc4)cc3)c2=O)C1 (stereo not shown) — remaining binding (cell-free assay, competition with immobilised ligand; 1 µM): 66%
O=C(Cc1ccc(OCc2ccccc2)cc1)NC1(C(=O)O)CCN(C(=O)c2ccc(-c3cccc(Cl)c3)cc2)CC1 — activity vs control (enzyme activity, inhibitor; 10 µM): 82%
COc1cc(Nc2nc(C)cc(-c3cnn4nc(OC)ccc34)n2)cc(C(F)(F)F)c1 — remaining binding (binding, competition with immobilised ligand; 1 µM): 100%
CCN1CCN(Cc2ccc(NC(=O)c3ccc(C)c(NC(=O)c4cncc(-c5cnn(C)c5)c4)c3)cc2C(F)(F)F)CC1 — remaining binding (binding, competition with immobilised ligand; 1 µM): 100%
Cc1cnc2nc1Nc1cccc(c1)COC/C=C/COCc1cc(ccc1OCCN1CCOCC1)N2 — remaining binding (binding, competition with immobilised ligand; 0.1 µM): 95%
CNC(=O)C1CCN(c2cc(C)c(F)cc2NC(=O)c2ccc(-c3cc(O)ccc3C)c(C)c2)CC1 — remaining binding (binding, competition with immobilised ligand; 1 µM): 100%
COc1c(Cl)cccc1Nc1c(-c2ccncc2C#C[C@@]2(C)CCCN2C(=O)/C=C/CN(C)C)[nH]c2c1C(=O)NCC2 — remaining binding (binding, competition with immobilised ligand; 3 µM): 75%

Some of these lines once more:
COc1cc(Nc2nc(C)cc(-c3cnn4nc(OC)ccc34)n2)cc(C(F)(F)F)c1 — remaining binding (binding, competition with immobilised ligand; 1 µM): 100%
CCN1CCN(Cc2ccc(NC(=O)c3ccc(C)c(NC(=O)c4cncc(-c5cnn(C)c5)c4)c3)cc2C(F)(F)F)CC1 — remaining binding (binding, competition with immobilised ligand; 1 µM): 100%
